Assay results gathered from unrelated publications.
Every numbered part comes from another study and shows a few of its results, in no order. Substitutions count along the parent as printed.

Sample 1 — target: CCNE2, cyclin fold, Cln2 fusion (human); technique: yeast growth competition, sequencing; sample: yeast; notes: strong parent motif; reference: not given; direction: higher = stronger binding; measurement: normalised enrichment score
Starting sequence: E2F3 docking peptide (human); PPAKRRLELGESG; partner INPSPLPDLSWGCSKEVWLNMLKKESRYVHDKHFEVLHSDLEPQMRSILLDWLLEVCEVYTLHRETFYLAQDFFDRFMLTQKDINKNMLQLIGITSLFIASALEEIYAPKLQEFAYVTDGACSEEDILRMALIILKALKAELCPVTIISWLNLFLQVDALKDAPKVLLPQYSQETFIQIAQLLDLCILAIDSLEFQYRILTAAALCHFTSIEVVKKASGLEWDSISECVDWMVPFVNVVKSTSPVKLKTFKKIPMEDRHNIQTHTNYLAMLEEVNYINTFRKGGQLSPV
L9F: 4.81
R5A: -0.196
L7A: 0.399
G13A: 0.793
S12A: 1.01
R6A: 0.0793
L9A: 0.26

Sample 2 — technique: RNA Bind-n-Seq; form: RNA; sample: in vitro; concentration: 365 nM; reference: no-protein control; direction: higher = stronger binding; measurement: RBNS enrichment (R)
Target: RNA binding protein fox-1 homolog 2, RRM domain, GST-SBP tag (RBFOX2, Homo sapiens, UniProt O43251-10, residues 100-194)
Notes: natural RNA segment, single round, ends assumed
Shared flanks, not repeated: GGGAGUUCUACAGUCCGACGAUC … UGGAAUUCUCGGGUGCCAA
AGAUGUGAAUACAUAUUGUAAGAGCACGUUGAAUAGUGUGCAUUACUGUGGGGAAACACCGAAACUGCUGUUGUUUUUCAUUUCUACUGUAUUUUAGUUGCAGCCUAUUU: 0.445
UUGAAACUGAGAGUGUUGGGAAGGAUAUACUUACGUAAUGGAGCUGUCAAAGCCGAGAGACCAGCCUGCGUCCUAAAGUUUGCUUUAGAGAGUAGGAAUGUCGGGGUUUC: 0.438
UUUUAUGCAUUGAUGGUUUUUUUUUUCUUUUUUGCCAAAUUGACUGUCACGCGGCAGCUUCAGGGAGCUCGCAUUCUCUUGUGUUCGUGUUGCCCUCGUGCCCAUCAAGU: 0.599
UGUUAUGAAAUAUUUUUACUAUGACUCCUUCAACAACUAAAUACGAACUGCCUGUUCUCUAAACCUCAAGGAGAAAAACUGGAGUUAAUGGGUAAUAAGGUGCAAAAUAA: 0.559
UGGGGGUGAGGAGUGGGGAGACUUCUCUGGUCAUUACACUGCUAUUUAUUUCUAGAACUCACUAUCAGUGAGCAGUGCCAGAGUGUUUUCUCUUUGACCUAGAGGUUUCA: 0.592
GUUCCAAGUUGGUUGCUGUGACAACCUCCAGGAAGAGCCACUUGUUACCCUCUAUUCUUUCUAGUGCUUUCAGUCAGUGGCAACACAUAGGCCCCUUGGACCGUGGGGAU: 0.411
GUAGCUCCCAUAAUUGUGGGAGGGACCUGGUGGGAGAUAAUUGAAUCAUAGGGGCAGUUUCUCCCAUACUGUUCUGGUGGUAGUGAAUAAGUCUCACGAGAUCUGAUGGU: 0.71
AAGUCUAGUAAGAAUUAAUUACACAGAAGCCUCCUUUCAUUUCUAUGGGCCAAACAAAGGCCAUGGAUAACCCUACCCGCUUUAUGUCAUUACCCAUUGGGAAACACAAU: 0.436

Sample 3 — technique: RNA Bind-n-Seq; form: RNA; sample: in vitro; concentration: 200 nM; notes: whole 134-nt RNA, ends assumed; together with: 150 mM LiCl; reference: input library; direction: higher = stronger binding; measurement: log2 enrichment; each molecule: 7-deaza-guanosine replaces G
Target: Ras GTPase-activating protein-binding protein 1, full length (G3BP1, Homo sapiens, UniProt Q13283)
Sequence of UniProt Q13283 (whole entry, looked up): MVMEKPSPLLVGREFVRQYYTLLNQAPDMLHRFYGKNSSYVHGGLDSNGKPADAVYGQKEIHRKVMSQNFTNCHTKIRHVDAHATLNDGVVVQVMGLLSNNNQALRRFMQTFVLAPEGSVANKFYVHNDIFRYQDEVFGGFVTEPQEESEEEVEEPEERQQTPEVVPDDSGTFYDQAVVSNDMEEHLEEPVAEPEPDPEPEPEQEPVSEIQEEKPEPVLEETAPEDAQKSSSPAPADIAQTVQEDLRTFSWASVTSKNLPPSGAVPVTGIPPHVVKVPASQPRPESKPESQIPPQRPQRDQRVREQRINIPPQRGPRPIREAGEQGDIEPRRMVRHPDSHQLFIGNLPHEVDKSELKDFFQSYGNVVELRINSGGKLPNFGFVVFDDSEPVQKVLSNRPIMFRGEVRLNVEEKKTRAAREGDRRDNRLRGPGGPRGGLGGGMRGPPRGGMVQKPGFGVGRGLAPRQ
Shared flanks, not repeated: GGGAGUUCUACAGUCCGACGAUC … UGGAAUUCUCGGGUGUCAAGG
CCUCAAGUCCUGUGCUACACAUCGUAUGUACCGAAUCGGGUUGGGUUGGUUGGAAAGUAUUAUGUUACGCCGUUCGGAUCUGCACUUCCA: 0.29
UCAUUAGAAGAUCUAAUUGAGAGAGAGGUAACUGGUAUCCUUUUCCUACCAUAAAAACUGAAAGCAGUAUUUAUUGUGAAAUUCUAAUAC: 0.488
UCCUGUGCUACACAUCGUAUGUACCGAAUCGGAAAAAAGGGGAAAAAAGGGGAAAAAAGGAAAGUAUUAUGUUACGCCGUUCGGAUCUGC: -0.352
AAGUCCUGUGCUACACAUCGUAUGUACCGAAUCGGAAAGGAAAAAAAGGAAAAAGGAAAGUAUUAUGUUACGCCGUUCGGAUCUGCACUU: -0.707
AAGUCCUGUGCUACACAUCGUAUGUACCGAAUCGGGGAAAGGGGAAAGGAAAGGGGAAAGUAUUAUGUUACGCCGUUCGGAUCUGCACUU: 0.359
CACAGACAACACGCACCCACACAAAAACAGAGGGAAGGGGUUGGGAUGGGGACAGGGUGCACAGCAGGGCGGGGUAGGACCCCAGCCCCU: -0.49
UAACUUUAGAGGAGGAUCUGAAGGAUAUGGCAGUGGACGUGGAUUUGGGGAUGGCUAUAAUGGGUAUGGAGGAGGACCUGGAGGUGGCAA: -0.231
CAAGUCCUGUGCUACACAUCGUAUGUACCGAAUCGGGUUUGGGAAAGGGAAAGGGAAAGUAUUAUGUUACGCCGUUCGGAUCUGCACUUC: 0.0717

Sample 4 — technique: RNA Bind-n-Seq; form: RNA; sample: in vitro; concentration: not given; notes: RNA with constant flanks, ends assumed; reference: input RNA pool; direction: higher = stronger binding; measurement: bound/input enrichment
Target: RING finger protein unkempt homolog, zinc fingers 1-6, GST-SBP tag (UNK, Homo sapiens, UniProt Q9C0B0, residues 30-357)
Shared flanks, not repeated: GGGAGUUCUACAGUCCGACGAUC … CAACAGAGGAUUGAGCAUCA
Construct (chain): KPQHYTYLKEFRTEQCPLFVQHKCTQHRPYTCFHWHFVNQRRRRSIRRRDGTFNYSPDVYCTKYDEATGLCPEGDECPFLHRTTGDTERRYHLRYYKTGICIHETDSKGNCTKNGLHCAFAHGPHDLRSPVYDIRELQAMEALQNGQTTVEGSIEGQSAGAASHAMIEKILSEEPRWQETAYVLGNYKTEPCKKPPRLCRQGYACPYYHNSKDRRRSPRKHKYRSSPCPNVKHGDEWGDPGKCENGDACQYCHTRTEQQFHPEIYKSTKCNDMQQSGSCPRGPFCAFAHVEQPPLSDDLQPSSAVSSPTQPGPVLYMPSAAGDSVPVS
CCUGGUGCAGGAUUGCUUCCAAUACCGACCCCAAAUCCUUUGACUACUCUUGGUGUUUCACUCCGCAGUUUGGGAGCUAUACCAGCAGCAGCACUAGACCCCAACAUUGCAACACUUGGA: 0.2 ratio
GAAUCAACCAAUGAACAAUUACAGAUACAUUAUAAGGUAUGCUAUGCACGUGUUCUUGAUUACCGAAGAAAAUUCAUUGAAGCUGCACAAAGGUACAAUGAGCUCUCUUACAAGACAAUA: 0.186 ratio
AUAAGAAAUUUUCUGUGAAAUAUCCUUCCAUUGUUUAAGCUUUUGUUUUGGUCAUCUUUAUUCCGUUUGCAUGAAGUUGAAAAUUAAGGCAUUUUUAAAAAUUUUACUUCAUGCCCAUUU: 0.411 ratio
ACUAACAGGCCAUUUAUUUCCCAGAAAAUCCACUUUCCUGACUUUUCUACCAGAGACAUACACCGGAAUUAUGUUGAUUGUGUGCGAUGGUUAGGCGAUUUGAUACUUUCCAAGUCUUGU: 0.249 ratio
GUGAAGUACGCGUAUUAUGACACUGAACGCAUUGGAGUUGACCUCAUCAUGAAGACGUGUUUCCGCCCCAACCGGGUGAUUGGACUCUCAAGUGACUUACAACAAGUGGGAGGGGCCUCA: 0.155 ratio
AAUGAUGAAGUAACAAUAAAGUAUAAAGAUGAAGAUGGAGAUCUUAUAACAAUUUUUGACCGUUCUGACCUUUCCUUUGCAAUUCAGUGCAGUAGGAUACUGAAACUGACAUUAUUUGUU: 0.252 ratio
GCAUGUUCUUAUGGACAUUAUGAAGUUGCAGAACUUCUUGUUAAACAUGGAGCAGCCGUUAAUGCCGCUGAUUUAUGGAAAUUUACACCUUUACAUGAAGCAGCAGCAAAAGGAAAAUAU: 0.103 ratio
CGUGGAGUUGCCGUUCUGUGCACUGAGUAAAGCUAGACUUUUCUCCAGUCCUCUUUCUGGAACCGGAAACUCCCAAUAUUUAACCUUCAUUCAUCCUUAACGGUGUGGAAGGGUUGAUGG: 0.086 ratio

Excerpt of the above (sample 4):
GUGAAGUACGCGUAUUAUGACACUGAACGCAUUGGAGUUGACCUCAUCAUGAAGACGUGUUUCCGCCCCAACCGGGUGAUUGGACUCUCAAGUGACUUACAACAAGUGGGAGGGGCCUCA: 0.155 ratio
AAUGAUGAAGUAACAAUAAAGUAUAAAGAUGAAGAUGGAGAUCUUAUAACAAUUUUUGACCGUUCUGACCUUUCCUUUGCAAUUCAGUGCAGUAGGAUACUGAAACUGACAUUAUUUGUU: 0.252 ratio
GCAUGUUCUUAUGGACAUUAUGAAGUUGCAGAACUUCUUGUUAAACAUGGAGCAGCCGUUAAUGCCGCUGAUUUAUGGAAAUUUACACCUUUACAUGAAGCAGCAGCAAAAGGAAAAUAU: 0.103 ratio
